Measured values from different studies.
Lines come from different studies, so protocols differ. Numbers after ± are the reported error.

Molecule = Cc1cc(NC(=O)c2cc(C(F)(F)F)cc(C(F)(F)F)c2)ccc1NS(C)(=O)=O; organism = Trypanosoma brucei brucei; assay = cell growth; system = Lister 427; setting = 48 h; IC50 = < 5 µM
Molecule = CCC(C)N1CCC(c2ccc(Nc3ccnc4cc(Cl)ccc34)cc2)CC1 (stereo not drawn); organism = Plasmodium falciparum; assay = parasite growth, SYBR Green; system = DD2; setting = 72 h, drug-resistant strain, blood stage; IC50 = 0.009 µM
Molecule = 5′-deoxy-5′-Pro-DADMe-ImmA; organism = Campylobacter jejuni; assay = growth, optical density; system = Mueller-Hinton broth; setting = 16.4 h; IC50 = 3.1 ± 0.2 µM
Molecule = COc1ccc(Oc2ccccc2NC(=O)c2ccccc2OC)cc1; organism = Human immunodeficiency virus 1; assay = viral replication; system = MT4; setting = 7 days; IC50 = 50.3 µM
Molecule = C/C=C1\NC(=O)[C@H]2CSSCC/C=C/[C@H](CC(=O)N[C@H](C(C)C)C(=O)N2)OC(=O)[C@H](C(C)C)NC1=O; organism = Lucilia cuprina; assay = larval weight gain; system = LS strain, larvae on impregnated cotton wool; setting = 24 h; IC50 = 0.124 µg
Molecule = O=c1c(O)c(-c2cc(O)c(O)c(O)c2)oc2cc(O)cc(O)c12; organism = human alphaherpesvirus 2; assay = viral replication; system = Vero, 333; setting = 24 h; IC50 = 1.6 ± 0.5 µM
Molecule = FC(F)(F)c1ccc(N2CCN(c3ccc(Nc4ccnc5cc(Cl)ccc45)cc3)CC2)cc1; organism = Plasmodium falciparum; assay = parasite growth, SYBR Green; system = DD2; setting = 72 h, drug-resistant strain, blood stage; IC50 = 0.095 µM
Molecule = C#CCn1cc(C=O)c2cc([N+](=O)[O-])ccc21; organism = Trypanosoma congolense; system = trypomastigotes, IL3000; IC50 = > 110 µM
Molecule = CCCN1CCC(c2ccc(Nc3ccnc4cc(Cl)ccc34)cc2)CC1; organism = Plasmodium falciparum; assay = parasite growth, SYBR Green; system = DD2; setting = 72 h, drug-resistant strain, blood stage; IC50 = 0.015 µM
Molecule = O=C1CSC(=S)N1/N=C/c1cn(Cc2ccc(F)cc2)c2ccc([N+](=O)[O-])cc12; organism = Leishmania major; assay = parasite growth, resazurin; system = THP-1; setting = 24 h, intracellular, amastigote; IC50 = > 10 µM
Molecule = CCCCCCCCCCCCCCCCOP(=O)([O-])OCC[N+](C)(C)C; organism = Leishmania donovani; assay = parasite growth; system = THP-1; setting = intracellular, amastigote; IC50 = 1.97 µM
Molecule = N=C(N)c1ccc(-c2ccc(-c3ccc(C(=N)N)s3)s2)cn1; organism = Trypanosoma brucei; assay = parasite growth; system = RHODESIENSE STIB900; IC50 = ≤ 0.006 µM
Molecule = O=C1NC(=S)S/C1=C\c1c[nH]c2ccc([N+](=O)[O-])cc12; organism = Leishmania major; assay = parasite growth, resazurin; system = THP-1; setting = 72 h, intracellular, amastigote; IC50 = 0.57 µM
Molecule = COc1ccccc1NC(=O)c1ccccc1Sc1ccccc1; organism = Human immunodeficiency virus 1; assay = viral replication; system = MT4; setting = 7 days; IC50 = > 100 µM
Molecule = O=C1NC(=S)S/C1=C\c1cn(Cc2ccccc2)c2ccc([N+](=O)[O-])cc12; organism = Leishmania major; assay = parasite growth, resazurin; system = THP-1; setting = 72 h, intracellular, amastigote; IC50 = 0.51 µM
Molecule = O=C(Nc1ccc([N+](=O)[O-])cc1Cl)c1cc(Cl)ccc1O; organism = Zika virus; assay = viral replication, focus-forming; system = iPSC-derived human astrocytes, PRVABC59; IC50 = ~0.2 µM
Molecule = CCCCc1nc2cc(/C=C/C(=O)NO)ccc2n1CCN(CC)CC; organism = Lucilia cuprina; assay = larval weight gain; system = LS strain, larvae on impregnated cotton wool; setting = 24 h; IC50 = 302 µg
Molecule = FC(F)(F)Oc1ccc(-c2cnc3cc(Cl)ccc3c2Nc2ccc(C3CN(Cc4ccccc4)CCO3)cc2)cc1 (stereo not drawn); organism = Plasmodium falciparum; assay = parasite growth, SYBR Green; system = D6; setting = 72 h, blood stage; IC50 = ≥ 0.25 µM
Molecule = O=C(O)c1ccc(-c2cc3cccc([N+](=O)[O-])c3[nH]c2=O)cc1; organism = Trypanosoma brucei; assay = parasite growth, resazurin; setting = 74 h, trypomastigote; IC50 = 1.5 µM
Molecule = CC(C)N1CCC(c2ccc(Nc3ccnc4cc(Cl)ccc34)cc2)CC1; organism = Plasmodium falciparum; assay = parasite growth, SYBR Green; system = DD2; setting = 72 h, drug-resistant strain, blood stage; IC50 = 0.01 µM
Molecule = O=C1CSC(=S)N1/N=C/c1c[nH]c2ccc([N+](=O)[O-])cc12; organism = Trypanosoma congolense; system = trypomastigotes, IL3000; IC50 = > 61 µM
Molecule = O=C(Nc1ccc2c(c1)OCO2)c1ccccc1Sc1ccc([N+](=O)[O-])cc1; organism = Human immunodeficiency virus 1; assay = viral replication; system = MT4; setting = 7 days; IC50 = > 100 µM
Molecule = Cc1ccc(Cn2cc(/C=C3\SC(=S)NC3=O)c3cc([N+](=O)[O-])ccc32)cc1; organism = Trypanosoma congolense; system = trypomastigotes, IL3000; IC50 = > 70 µM
Molecule = O=c1[nH]c2c([N+](=O)[O-])cccc2cc1-c1ccccc1CO; organism = Trypanosoma brucei; assay = parasite growth, resazurin; setting = 74 h, trypomastigote; IC50 = 7.2 µM
Molecule = O=c1c(O)c(-c2cc(O)c(O)c(O)c2)oc2cc(O)cc(O)c12; organism = Human immunodeficiency virus 1; assay = viral replication, inhibitor; system = TZM-bl, NL43; setting = 48 h; IC50 = 3.11 µM
Molecule = O=Cc1c[nH]c2ccc([N+](=O)[O-])cc12; organism = Trypanosoma congolense; system = trypomastigotes, IL3000; IC50 = > 131 µM
Molecule = O=C(CCCCCCC(=O)Nc1ccc([C@H]2O[C@@H](CSc3nc(-c4ccccc4)c(-c4ccccc4)o3)C[C@@H](c3ccc(CO)cc3)O2)cc1)NO; organism = Lucilia cuprina; assay = larval weight gain; system = LS strain, larvae on impregnated cotton wool; setting = 24 h; IC50 = > 1000 µg
Molecule = O=Cc1ccccc1-c1cc2cccc([N+](=O)[O-])c2[nH]c1=O; organism = Trypanosoma brucei; assay = parasite growth, resazurin; setting = 74 h, trypomastigote; IC50 = 7.5 µM
Molecule = CS(=O)(=O)c1ccc(-c2cnc(N)c(-c3ccc(C(F)(F)F)nc3)c2)cc1; organism = Plasmodium cynomolgi; assay = hypnozoite (small EEF) growth; system = primary rhesus hepatocytes; setting = day 5, compound added at 120 h; IC50 = > 10 µM
Molecule = C#CCn1cc(/C=C2\SC(=S)NC2=O)c2cc([N+](=O)[O-])ccc21; organism = Leishmania major; assay = parasite growth, resazurin; system = THP-1; setting = 24 h, intracellular, amastigote; IC50 = > 10 µM
Molecule = COc1ccccc1NC(=O)c1ccccc1Sc1ccc(N)cc1; organism = Human immunodeficiency virus 1; assay = viral replication; system = MT4; setting = 7 days; IC50 = > 100 µM
Molecule = Cn1cc(CNCC2CCN(c3ncc(C(=O)NO)cn3)CC2)c2ccccc21; organism = Lucilia cuprina; assay = larval weight gain; system = LS strain, larvae on impregnated cotton wool; setting = 24 h; IC50 = 100 µg
Molecule = Clc1ccc2c(Nc3ccc(N4CCCCC4)cc3)ccnc2c1; organism = Plasmodium falciparum; assay = parasite growth, SYBR Green; system = D6; setting = 72 h, blood stage; IC50 = 0.197 µM
Molecule = Ac-LCDCPNGPWAWVPAFCQAVG-OH (cysteine pairing not given here) (N-acetyl); organism = HIV-1 NL4-3; assay = viral replication; system = CEMx174 SEAP reporter; setting = 3 d; IC50 = 19 ± 6.83 µM
Molecule = C=C1C(=O)O[C@H]2[C@H]1CC/C(C)=C/CC[C@@]1(C)O[C@@H]21; organism = Lucilia cuprina; assay = larval weight gain; system = LS strain, larvae on impregnated cotton wool; setting = 24 h; IC50 = > 1000 µg
Molecule = COc1ccccc1S(=O)(=O)Nc1ccccc1Sc1ccc([N+](=O)[O-])cc1; organism = Human immunodeficiency virus 1; assay = viral replication; system = MT4; setting = 7 days; IC50 = 39 µM

Some of these lines once more:
Molecule = FC(F)(F)c1ccc(N2CCN(c3ccc(Nc4ccnc5cc(Cl)ccc45)cc3)CC2)cc1; organism = Plasmodium falciparum; assay = parasite growth, SYBR Green; system = DD2; setting = 72 h, drug-resistant strain, blood stage; IC50 = 0.095 µM
Molecule = C#CCn1cc(C=O)c2cc([N+](=O)[O-])ccc21; organism = Trypanosoma congolense; system = trypomastigotes, IL3000; IC50 = > 110 µM
